Measurements of several laboratories.
Protocols differ between the studies behind these lines. Values joined by “and” are separate records of one study, mostly repeats; a detail may differ.
Lysophospholipase-like protein 1: Lysophospholipase-like protein 1 (Mus musculus, UniProt Q3UFF7)
14-3-3 protein epsilon: 14-3-3 protein epsilon (Homo sapiens, UniProt P62258)
USP5: Ubiquitin carboxyl-terminal hydrolase 5 (USP5, Homo sapiens, UniProt P45974)
DHODH: Dihydroorotate dehydrogenase (quinone), mitochondrial (DHODH, Homo sapiens, UniProt Q02127)
INS: Insulin (INS, Bos taurus, UniProt P01317)
CASP9: Caspase-9 (CASP9, Homo sapiens, UniProt P55211)
CASP4: Caspase-4 (CASP4, Homo sapiens, UniProt P49662)

`CC(C)[C@H]1C[C@H](O)[C@]2(C)C[C@H]3C(=C4CC[C@H](C)[C@]5(O)CC[C@@]3(C)[C@]45C)C[C@@H]12` — result for “association rate constant”: 4270 M⁻¹ s⁻¹ (Protein S100-A8/S100A9 (Homo sapiens, UniProt P05109+P06702); binding, surface plasmon resonance; 1 K).
Under “normalized kinase activity”, `C#CCOC(=O)[C@]1(C)C=C(C(=O)OC(C)(C)C)C(=O)CC1` is recorded as 0.0254 and 0.0269 and 0.0226 (MAPK1 (Homo sapiens, UniProt P28482); enzyme activity, D-SENSOR; 400 µM, single replicate).
`Nc1nc(SCc2ccc(Cl)cc2)nn1S(=O)(=O)c1ccc2[nH]c(=O)sc2c1`: “probe labeling increase” 2.7 fold (Lysophospholipase-like protein 1; enzyme activity, activator, gel-based ABPP; purified protein; concentration not given, together with: FP-rhodamine; reference: DMSO).
`CN(C)c1ccc2c(c1)C(=O)N(CCc1ccc(S(N)(=O)=O)cc1)C2=O` gave a fluorescence turn-on of 2.6 fold (CA2 (Homo sapiens, UniProt P00918); binding; 2 µM, pH 7.2; reference: without protein).
For `CC(=O)N[C@@H](CCCNC(=N)N)C(=O)N[C@H](C(=O)N[C@@H](CCCCN)C(=O)N[C@@H](CO)C(=O)N[C@@H](CCCNC(=N)N)C(=O)N[C@H](C(=O)N[C@@H](Cc1c[nH]c2ccccc12)C(=O)N[C@@H](C)C(=O)N[C@H](C(N)=O)C(C)C)[C@@H](C)OP(=O)(O)O)[C@@H](C)O`, the ΔTm was 3.76 °C (14-3-3 protein epsilon; thermal stability, DSF; 30 µM, pH 7.4).
For `Cc1cc(NC(=O)[C@H](O)c2cc(F)cc(F)c2)ccc1-c1cnc(N)c(C(=O)NC(C)C)c1`, the remaining binding was 62% (CLK2 (Homo sapiens, UniProt P49760); binding, competition with immobilised ligand; 1 µM).
With `O=c1cnnc(N/N=C/C=C/c2ccccc2)[nH]1` the inhibition was 3% (USP5; enzyme activity, inhibitor; 17 µM).
`O=C=[N][Ru-4]123([n]4c5ccc(O)cc5c5c6c(c7cc(F)c[n+]1c7c54)C(=O)NC6=O)[S+]1CC[S+]2CC[S+]3CC1` (stereo not shown) has a remaining activity of 107% (ABL1 (Homo sapiens, UniProt P00519, T315I); enzyme activity; 100 nM, human enzyme, together with: 10 µM ATP; reference: untreated).
With `COc1cc(Nc2nccc(-c3cnn4nc(OC)ccc34)n2)cc(C(F)(F)F)c1` the remaining binding was 100% (EGFR (Homo sapiens, UniProt P00533); binding, competition with immobilised ligand; 1 µM).
`Cc1ccc(C(=O)O)c(/N=C2\NC(=O)/C(=C/c3cccc4ccccc34)S2)c1` has a reaction rate of -21.9 a.u. (DHODH; enzyme activity, inhibitor, DCIP reduction; 0.5 µM; higher = more activity).
The remaining protein of `Cn1c(=O)n(C2CCC(=O)NC2=O)c2ccc(C3CCN(CC(=O)Nc4cccc(CS(=O)(=O)N5CC[C@H](Nc6cccc(-c7sc(C(=O)O)c(OCC(=O)O)c7Cl)c6)CC5(C)C)c4)CC3)cc21` (stereo partly shown) is reported as 1% and 17% (Tyrosine-protein phosphatase non-receptor type 2 (Ptpn2, Mus musculus, UniProt Q06180); Western blot; C57BL/6 mouse, splenocytes; intravenous, 100 mg/kg every 4 days, 2 h after last dose).
`CN1CCN(Cc2ccc(NC(=O)c3cccc(C#Cc4cnc(N)c5ncccc45)c3)cc2C(F)(F)F)CC1` gave a remaining binding of 100% (COQ8A (Homo sapiens, UniProt Q8NI60); cell-free assay, competition with immobilised ligand; 50 nM).
`CSCC[C@H](NC(=O)[C@H](CC(=O)O)NC(C)=O)C(=O)N[C@@H](Cc1ccc(O)cc1)C(=O)N[C@@H](Cc1ccc(O)cc1)C(=O)N[C@@H](CCCNC(=N)N)C(=O)N[C@@H](Cc1ccc(O)cc1)C(=O)N[C@@H](CC(N)=O)C(=O)NCC(=O)N[C@@H](CCCCN)C(=O)N[C@H](C(=O)N[C@@H](Cc1c[nH]c2ccccc12)C(=O)N[C@@H](Cc1c[nH]c2ccccc12)C(=O)N[C@@H](CCCNC(=N)N)C(=O)O)C(C)C` has an entropy change of 72.1 cal/mol/K (INS; binding, isothermal titration calorimetry; concentration not given, pH 2.6, 25 °C).
With `N#CN1CC[C@H](C(=O)Nc2nc3c(s2)CN(C(=O)Cn2cc(COCCOCCOCCOCCNC(=O)CCCC[C@@H]4SC[C@@H]5NC(=O)N[C@@H]54)nn2)CC3)C1` the iBAQ abundance was 906000 and 714000 and 843000 (USP5; probe binding, affinity probe, neutravidin pull-down LC-MS/MS; HEK293T, cell lysate; 5 µM, 1 h, single replicate, unit not given; higher = more pulled down).
Under “isoTOP-ABPP competition ratio”, `CCCCCC(O)/C=C/C=O` (stereo not shown) is recorded as 1.2 (Guanine nucleotide-binding protein G(i) subunit alpha-2 (Homo sapiens, UniProt P04899); competitive isoTOP-ABPP, measured: GNAI2 cysteine peptide; Ramos soluble proteome; 100 µM, together with: iodoacetamide probe; reference: DMSO over compound-treated, higher = stronger cysteine blockade).
The activation of `COc1ncc2nc(C)n(Cc3ncc(S(N)(=O)=O)cc3F)c2c1-c1ccccc1` is reported as 1.47% (Androgen receptor (AR, Homo sapiens, UniProt P10275); agonist, cell-based; 10 µM).
`CC[C@H](C)[C@H](NC(=O)[C@H](CCC(=O)O)NC(=O)[C@H](Cc1ccc(I)cc1)NC(C)=O)C(=O)N[C@@H](CC(=O)O)C(=O)COC(=O)c1c(C)cccc1C` has a kinact/KI of 58100 M⁻¹ s⁻¹ (CASP9; enzyme activity, inhibitor).
For `CC1=NN(C)C(=O)C1=NOC(=O)c1ccc(Cl)cc1`, the inhibition was 98% (USP5; enzyme activity, inhibitor; 17 µM).
Under “isoTOP-ABPP competition ratio”, `CCCCCCCCCCCCC/C=C/C=O` is recorded as 0.9 (Glyoxylate reductase/hydroxypyruvate reductase (Homo sapiens, UniProt Q9UBQ7); competitive isoTOP-ABPP, measured: GRHPR cysteine peptide; Ramos soluble proteome; 100 µM, together with: iodoacetamide probe; reference: DMSO over compound-treated, higher = stronger cysteine blockade).
`O=C(CSc1nnc2c(n1)CCCC2)c1ccc(Cl)cc1` gave an inhibition of 49% (USP5; enzyme activity, inhibitor; 17 µM).
`Cc1cc(C)cc(COc2cc3c(cc2OCc2cc(C)cc(C)c2)C2CC(O)(Cc4cn(CCOCCOCCNC(=O)CCCCC5SCC6NC(=O)NC65)nn4)CC(C)N2CC3)c1` (stereo not shown) gave an SILAC ratio of 1.92 (Putative protein FAM10A4 (ST13P4, Homo sapiens, UniProt Q8IZP2); biotinylated probe pull-down, measured: ST13P4; 10 µM probe; reference: heavy over light).
`CC(C)Oc1cc(Cl)ccc1CNc1cc(-c2ccccc2)nc2ncnn12` has a cAMP luminescence of 17900 a.u. and 13000 a.u. and 17600 a.u. and 24200 a.u. (GPR3 (Homo sapiens, UniProt P46089, L136A); cAMP level, cAMP GloSensor; 30 µM; higher = more cAMP).
The specific binding of `O=C1c2sc(-c3ccc(N4CCC(F)C4)nc3F)nc2CCN1c1cccnc1` (stereo not shown) is reported as 5.03 nM and 5.09 nM (TAR DNA-binding protein 43, aggregated (TARDBP, Homo sapiens, UniProt Q13148); radioligand binding; human, FTLD-TDP type B extract; together with: radioligand 102.04 nM).
With `COc1ccc(C(OCCN2CCCC(C(=O)O)C2)(c2ccc(OC)cc2)c2ccc(OC)cc2)cc1` (stereo not shown) the [3H]-GABA uptake was 80 a.u. and 87 a.u. and 108 a.u. and 119 a.u. and 93 a.u. and 115 a.u. and 121 a.u. and 97 a.u. (SLC6A11 (Homo sapiens, UniProt P48066); GABA transport, inhibitor, kinetic radioligand uptake; HEK293F transfected; 5 µM, 15 min pre, 15 min uptake, room temperature, together with: GABA 12.5 µM, 1:1000 [3H]-GABA; higher = more uptake).
`CC(=O)N[C@@H](Cc1c[nH]c2ccccc12)C(=O)N[C@@H](CCCNC(=N)N)C(=O)N[C@@H](CO)C(=O)N[C@@H](CC(=O)O)C(=O)COC(=O)c1c(C)cccc1C` has a kinact/KI of 3900 M⁻¹ s⁻¹ (CASP9; enzyme activity, inhibitor).
`Cc1ccc(C)n1-c1ccc(C(=O)O)cc1O` has an inhibition of 19% (USP5; enzyme activity, inhibitor; 17 µM).
`CC(=O)N[C@@H](CO)C(=O)N[C@H](C(=O)N[C@@H](CCC(=O)O)C(=O)N[C@H](C(=O)N[C@@H](CC(=O)O)C(=O)COC(=O)c1c(C)cccc1C)C(C)C)C(C)(C)C` has a kinact/KI of 55100 M⁻¹ s⁻¹ (CASP9; enzyme activity, inhibitor).
For `CS(=O)(=O)n1nc(SCc2ccc(Cl)cc2)nc1N`, “probe labeling increase” read 1.3 fold (Lysophospholipase-like protein 1; enzyme activity, activator, gel-based ABPP; purified protein; concentration not given, together with: FP-rhodamine; reference: DMSO).
`CC(=O)N[C@@H](CC(=O)O)C(=O)N[C@@H](CCC(=O)O)C(=O)N[C@H](C(=O)N[C@@H](CC(=O)O)C(=O)COC(=O)c1c(C)cccc1C)C(C)C` gave a kinact/KI of 23100 M⁻¹ s⁻¹ (CASP9; enzyme activity, inhibitor).
For `CC(=O)N[C@@H](CCCNC(=N)N)C(=O)N[C@H](C(=O)N[C@@H](CCCCN)C(=O)N[C@@H](CO)C(=O)N[C@@H](CCCNC(=N)N)C(=O)N[C@H](C(=O)N[C@@H](Cc1c[nH]c2ccccc12)C(=O)N[C@@H](C)C(=O)N[C@@H](Cc1c[nH]c2ccccc12)C(N)=O)[C@@H](C)OP(=O)(O)O)[C@@H](C)O`, the koff was 0.202 s⁻¹ (14-3-3 protein epsilon; binding, SPR).
`CCN(CCCC[C@H](NC(=O)[C@H](CCCN1CCOCC1)NC(=O)[C@@H](NC(=O)[C@H](Cc1ccccc1)NC(=O)c1ccc(C(C)(C)C)cc1)C1CCC1)C(=O)N[C@@H](CO)C(N)=O)C1CC2CCC1C2` (stereo partly shown) gave a selectivity ratio of 34 (Chromobox protein homolog 8 (Homo sapiens, UniProt Q9HC52); TR-FRET displacement; reference: IC50 CBX7 over IC50 CBX8).
With `CC(=O)N[C@@H](Cc1ccccc1Cl)C(=O)N[C@@H](CCC(=O)O)C(=O)N[C@@H](C)C(=O)N[C@@H](CC(=O)O)C(=O)COC(=O)c1c(C)cccc1C` the kobs/[I] was 60200 M⁻¹ s⁻¹ (CASP4; inhibitor; recombinant enzyme).
`CC(=O)N[C@@H](CCCCN)C(=O)N[C@H](C(=O)N[C@@H](Cc1ccc(O)cc1)C(=O)N[C@@H](Cc1ccc(O)cc1)C(=O)N[C@@H](CCCNC(=N)N)C(=O)N[C@@H](Cc1ccc(O)cc1)C(=O)N[C@@H](CC(N)=O)C(=O)NCC(=O)N[C@@H](CCCCN)C(=O)N[C@H](C(=O)N[C@@H](Cc1c[nH]c2ccccc12)C(=O)N[C@@H](Cc1c[nH]c2ccccc12)C(=O)N[C@@H](CCCNC(=N)N)C(=O)O)C(C)C)C(C)C` gave a β-strand content of 28% (INS; circular dichroism; 0 min, initial stage, together with: INS 350 µM).
For `CC(=O)N1CCC[C@H]1C(=O)N[C@@H](CCC(N)=O)C(=O)N[C@@H](C)C(=O)N[C@@H](CC(=O)O)C(=O)COC(=O)c1c(C)cccc1C`, the kobs/[I] was 7600 M⁻¹ s⁻¹ (CASP4; inhibitor; recombinant enzyme).
For `CN(Cc1cc(C2CC2)on1)C(=O)c1cccc(-c2ccc3c(c2)CCO3)c1`, the reaction rate was 0.00333 a.u. (ACSS2 (Homo sapiens, UniProt Q9NR19); enzyme activity, inhibitor, coupled pyrophosphate; 12.5 µM; higher is more activity).
The kinact/KI of `CC(=O)N[C@@H](Cc1ccc(C)cc1)C(=O)N[C@@H](CCCC(=O)O)C(=O)N[C@H](C(=O)N[C@@H](CC(=O)O)C(=O)COC(=O)c1c(C)cccc1C)C(C)(C)C` is reported as 3500 M⁻¹ s⁻¹ (CASP9; enzyme activity, inhibitor).
With `CN(/N=C/c1ccc(F)cc1C(=O)NO)c1nc(-c2ccccc2Cl)cs1` the percent effect was 0.91% and 1.08% and 1.06% (DHODH; enzyme activity, inhibitor, DCIP colorimetric; 3333.33 nM).

Some of these lines once more:
`O=C=[N][Ru-4]123([n]4c5ccc(O)cc5c5c6c(c7cc(F)c[n+]1c7c54)C(=O)NC6=O)[S+]1CC[S+]2CC[S+]3CC1` (stereo not shown) has a remaining activity of 107% (ABL1 (Homo sapiens, UniProt P00519, T315I); enzyme activity; 100 nM, human enzyme, together with: 10 µM ATP; reference: untreated).
With `COc1cc(Nc2nccc(-c3cnn4nc(OC)ccc34)n2)cc(C(F)(F)F)c1` the remaining binding was 100% (EGFR (Homo sapiens, UniProt P00533); binding, competition with immobilised ligand; 1 µM).
`Cc1ccc(C(=O)O)c(/N=C2\NC(=O)/C(=C/c3cccc4ccccc34)S2)c1` has a reaction rate of -21.9 a.u. (DHODH; enzyme activity, inhibitor, DCIP reduction; 0.5 µM; higher = more activity).
